Experimental data of several laboratories.
Several values in a cell are separate wells, animals, samples, runs or records. Numbers after ± are the reported error.
lasR: Transcriptional activator protein LasR (lasR, Pseudomonas aeruginosa, UniProt P25084)
UniProt P25084, sequence (whole entry, looked up): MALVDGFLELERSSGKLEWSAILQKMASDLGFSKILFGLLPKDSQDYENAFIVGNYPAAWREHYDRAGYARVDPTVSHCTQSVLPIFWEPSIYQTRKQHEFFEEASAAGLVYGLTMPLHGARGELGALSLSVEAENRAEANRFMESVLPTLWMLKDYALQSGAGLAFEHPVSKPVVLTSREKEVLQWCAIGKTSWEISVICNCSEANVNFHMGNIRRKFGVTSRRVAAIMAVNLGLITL
UniProt Q13370, sequence (whole entry, looked up): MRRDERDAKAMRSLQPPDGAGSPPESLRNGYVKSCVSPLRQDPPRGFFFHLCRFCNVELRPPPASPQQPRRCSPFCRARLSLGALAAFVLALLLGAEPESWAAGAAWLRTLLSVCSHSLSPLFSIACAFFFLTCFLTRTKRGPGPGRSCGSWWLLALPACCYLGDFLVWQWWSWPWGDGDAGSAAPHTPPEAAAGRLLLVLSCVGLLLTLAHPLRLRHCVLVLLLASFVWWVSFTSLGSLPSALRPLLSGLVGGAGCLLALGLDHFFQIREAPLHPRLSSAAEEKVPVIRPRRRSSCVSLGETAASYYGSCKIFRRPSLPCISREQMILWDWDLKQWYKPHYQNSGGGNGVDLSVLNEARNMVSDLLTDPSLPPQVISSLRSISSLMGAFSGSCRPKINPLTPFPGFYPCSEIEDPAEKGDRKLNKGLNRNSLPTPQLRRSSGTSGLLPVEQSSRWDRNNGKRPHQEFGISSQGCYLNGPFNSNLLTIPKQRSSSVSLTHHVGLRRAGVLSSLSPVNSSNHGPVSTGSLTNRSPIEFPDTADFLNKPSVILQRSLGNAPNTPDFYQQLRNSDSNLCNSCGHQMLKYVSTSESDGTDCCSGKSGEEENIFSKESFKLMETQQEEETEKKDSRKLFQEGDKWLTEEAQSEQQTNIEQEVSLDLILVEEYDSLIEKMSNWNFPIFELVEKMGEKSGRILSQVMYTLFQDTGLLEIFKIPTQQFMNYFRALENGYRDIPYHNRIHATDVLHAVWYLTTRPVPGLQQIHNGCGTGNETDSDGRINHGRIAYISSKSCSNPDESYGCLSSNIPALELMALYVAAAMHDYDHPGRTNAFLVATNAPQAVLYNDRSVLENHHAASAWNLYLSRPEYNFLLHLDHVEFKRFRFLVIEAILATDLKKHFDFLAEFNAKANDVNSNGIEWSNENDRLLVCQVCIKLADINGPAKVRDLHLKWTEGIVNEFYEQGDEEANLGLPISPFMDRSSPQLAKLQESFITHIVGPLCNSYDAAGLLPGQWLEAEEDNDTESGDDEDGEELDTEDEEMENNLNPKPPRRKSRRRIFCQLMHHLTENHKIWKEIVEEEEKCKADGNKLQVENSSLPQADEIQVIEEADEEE
UniProt Q9H2K8, sequence (whole entry, looked up): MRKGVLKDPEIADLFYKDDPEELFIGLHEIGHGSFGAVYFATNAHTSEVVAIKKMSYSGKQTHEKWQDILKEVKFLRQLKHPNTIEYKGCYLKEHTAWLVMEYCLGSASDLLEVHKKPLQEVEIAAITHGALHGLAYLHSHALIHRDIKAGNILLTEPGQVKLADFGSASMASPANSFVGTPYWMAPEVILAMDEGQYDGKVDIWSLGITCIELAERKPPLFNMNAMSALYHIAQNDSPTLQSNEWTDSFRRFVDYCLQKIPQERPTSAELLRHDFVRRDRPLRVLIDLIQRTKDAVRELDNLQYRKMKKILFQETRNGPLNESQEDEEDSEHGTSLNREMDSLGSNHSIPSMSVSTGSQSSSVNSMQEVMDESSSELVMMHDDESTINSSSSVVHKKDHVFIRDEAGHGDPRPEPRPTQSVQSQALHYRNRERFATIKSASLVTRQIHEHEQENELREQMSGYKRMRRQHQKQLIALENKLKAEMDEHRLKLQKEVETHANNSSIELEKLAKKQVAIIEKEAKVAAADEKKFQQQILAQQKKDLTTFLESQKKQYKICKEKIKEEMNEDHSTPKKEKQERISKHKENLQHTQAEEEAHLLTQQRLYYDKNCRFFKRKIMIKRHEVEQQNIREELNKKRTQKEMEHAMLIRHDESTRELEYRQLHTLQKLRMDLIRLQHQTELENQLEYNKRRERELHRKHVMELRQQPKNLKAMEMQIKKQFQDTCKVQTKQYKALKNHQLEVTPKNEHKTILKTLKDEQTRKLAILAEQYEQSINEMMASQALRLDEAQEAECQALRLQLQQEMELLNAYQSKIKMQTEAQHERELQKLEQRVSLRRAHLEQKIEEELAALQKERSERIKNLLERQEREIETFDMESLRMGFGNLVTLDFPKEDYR
UniProt P23141, sequence (whole entry, looked up): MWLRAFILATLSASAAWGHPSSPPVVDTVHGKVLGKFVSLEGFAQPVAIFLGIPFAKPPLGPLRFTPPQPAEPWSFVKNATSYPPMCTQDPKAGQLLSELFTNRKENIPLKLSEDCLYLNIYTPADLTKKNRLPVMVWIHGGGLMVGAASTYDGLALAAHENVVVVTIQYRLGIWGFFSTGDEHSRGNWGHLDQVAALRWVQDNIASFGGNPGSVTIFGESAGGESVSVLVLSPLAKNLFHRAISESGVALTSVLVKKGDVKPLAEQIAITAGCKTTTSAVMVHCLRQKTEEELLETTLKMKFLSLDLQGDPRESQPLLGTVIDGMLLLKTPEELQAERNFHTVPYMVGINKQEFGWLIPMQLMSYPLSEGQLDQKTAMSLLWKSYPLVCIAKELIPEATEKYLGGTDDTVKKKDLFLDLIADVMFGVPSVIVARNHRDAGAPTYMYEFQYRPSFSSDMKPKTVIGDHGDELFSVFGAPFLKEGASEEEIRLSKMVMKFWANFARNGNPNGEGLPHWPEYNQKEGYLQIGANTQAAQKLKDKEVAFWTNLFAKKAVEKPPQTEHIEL
UniProt Q08499, sequence (whole entry, looked up): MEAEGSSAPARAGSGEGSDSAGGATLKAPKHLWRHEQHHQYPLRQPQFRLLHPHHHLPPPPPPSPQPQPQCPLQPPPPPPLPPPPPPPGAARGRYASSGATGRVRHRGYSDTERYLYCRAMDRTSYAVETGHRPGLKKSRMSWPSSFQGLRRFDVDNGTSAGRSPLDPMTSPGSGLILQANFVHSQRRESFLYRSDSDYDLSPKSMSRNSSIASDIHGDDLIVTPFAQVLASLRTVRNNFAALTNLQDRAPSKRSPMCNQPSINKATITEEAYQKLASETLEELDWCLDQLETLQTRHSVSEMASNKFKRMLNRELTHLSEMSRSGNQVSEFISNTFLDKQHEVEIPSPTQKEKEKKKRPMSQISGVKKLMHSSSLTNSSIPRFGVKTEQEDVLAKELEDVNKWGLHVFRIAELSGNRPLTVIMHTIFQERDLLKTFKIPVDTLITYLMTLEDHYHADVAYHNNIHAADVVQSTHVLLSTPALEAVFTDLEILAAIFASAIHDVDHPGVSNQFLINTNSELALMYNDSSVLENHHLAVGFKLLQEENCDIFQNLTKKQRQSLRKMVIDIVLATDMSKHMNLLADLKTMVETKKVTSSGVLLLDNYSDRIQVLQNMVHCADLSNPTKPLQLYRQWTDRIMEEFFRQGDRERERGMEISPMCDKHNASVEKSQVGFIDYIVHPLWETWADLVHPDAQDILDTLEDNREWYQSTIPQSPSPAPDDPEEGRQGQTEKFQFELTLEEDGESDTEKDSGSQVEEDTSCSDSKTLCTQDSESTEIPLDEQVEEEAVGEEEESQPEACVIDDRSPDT
UniProt P23219, sequence (whole entry, looked up): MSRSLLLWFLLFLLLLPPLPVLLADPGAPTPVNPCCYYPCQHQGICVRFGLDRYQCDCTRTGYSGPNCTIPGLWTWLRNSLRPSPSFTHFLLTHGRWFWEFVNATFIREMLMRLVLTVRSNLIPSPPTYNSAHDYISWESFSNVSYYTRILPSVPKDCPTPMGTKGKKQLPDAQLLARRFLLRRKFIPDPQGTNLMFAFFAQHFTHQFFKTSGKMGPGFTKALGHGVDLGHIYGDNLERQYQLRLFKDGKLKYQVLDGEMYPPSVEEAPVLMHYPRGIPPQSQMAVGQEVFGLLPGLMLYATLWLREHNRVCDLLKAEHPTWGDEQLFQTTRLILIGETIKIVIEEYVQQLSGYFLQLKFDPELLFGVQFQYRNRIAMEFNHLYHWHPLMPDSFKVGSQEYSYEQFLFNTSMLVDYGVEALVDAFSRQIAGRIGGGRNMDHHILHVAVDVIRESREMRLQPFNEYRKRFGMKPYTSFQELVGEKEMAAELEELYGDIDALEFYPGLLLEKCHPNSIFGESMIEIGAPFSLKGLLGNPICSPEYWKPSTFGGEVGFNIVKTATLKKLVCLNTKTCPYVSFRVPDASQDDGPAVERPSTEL

CCOC(=O)[C@](CC)(CCCSCCOCCOCCNC(=O)c1ccc(-c2c3ccc(=N)c(S(=O)(=O)O)c-3oc3c(S(=O)(=O)O)c(N)ccc23)c(C(=O)O)c1)NC(=O)c1ccc(C2CC2)c(Cc2ccc(F)cc2)n1
inhibition (central benzodiazepine site; specific binding, agonist radioligand binding; 10 µM): -1%

O=C1NC(=O)c2c1c1cc(F)c[n+]3c1c1c2c2cc(O)ccc2[n]1[Ru-4]312([N]=C=S)[S+]3CC[S+]1CC[S+]2CC3 (stereo not shown)
remaining activity (Mapk1 (Mus musculus, UniProt P63085); enzyme activity; 100 nM, mouse enzyme, with: 10 µM ATP; baseline: untreated): 5%

CS(C)(=O)=Nc1ccc(-c2ccc(-c3nc4cc(O[C@@H]5CO[C@H]6[C@@H]5OC[C@H]6O)[nH]c4cc3F)cc2)cc1
inhibition (TAOK3 (Homo sapiens, UniProt Q9H2K8); enzyme activity, inhibitor; 10 µM): 21%

CC(C)[C@H]1NC(=O)C[C@H]2/C=C/CCSSC[C@@H](NC1=O)C(=O)N[C@H](Cc1cccc3ccccc13)C(=O)NCC(=O)O2
inhibition (EPHB2 (Homo sapiens, UniProt P29323); enzyme activity, inhibitor; 10 µM): -0.8%

O=C(O)c1ccccc1/C=N/Nc1nc(-c2ccccc2Cl)cs1
inhibition (EPHA3 (Homo sapiens, UniProt P29320); enzyme activity, inhibitor; 1 µM): -4.59%

CCC1CC(c2ccc(C(=O)O)cc2C)=NN1c1ccc(C#N)c(Cl)c1 (stereo not shown)
inhibition (PRMT1 (Homo sapiens, UniProt Q99873); enzyme activity, inhibitor; 10 µM): 4%

CN(C)[C@H]1C[C@@]23CC[C@@]4(O2)C(=CC[C@]2(C)[C@@H](c5ccc6ccncc6c5)CC[C@H]24)C=C3[C@@H](O)[C@@H]1O
inhibition (PI4K2B (Homo sapiens, UniProt Q8TCG2); ATP probe labelling, inhibitor, KiNativ profiling; 0.1 µM): -3.4%

N=C(N)NCCC[C@@H]1NC(=O)[C@H](CCCCNC(=O)CCC(NC(=S)Nc2ccc(CC3CN(CC(=O)O)CCN(CC(=O)O)CCN(CC(=O)O)CCN3CC(=O)O)cc2)C(=O)NCCCC[C@@H]2NC(=O)[C@@H](Cc3ccc(O)cc3)NC(=O)[C@H](CC(=O)O)NC(=O)CNC(=O)[C@H](CCCNC(=N)N)NC2=O)NC(=O)[C@@H](Cc2ccc(O)cc2)NC(=O)[C@H](CC(=O)O)NC(=O)CNC1=O (stereo partly shown) [scandium-44 labelled]
tissue uptake (ex vivo γ-counting; female athymic nude mice, U-87 MG xenograft, liver; intravenous, 4 h, with: cRGD 50 mg/kg blocking): 0.106 ± 0.027 %ID/g

CC12CC(O)C3CC1(OC1OC(CO)C(O)C(O)C1O)C3(COC(=O)c1ccccc1)C(=O)O2 (stereo not shown)
inhibition (PDE4D (Homo sapiens, UniProt Q08499); enzyme activity, inhibitor, radiometric; 50 µM): 23.1%

CCCCCCCCCC(=O)NC1CCCC1
inhibition (lasR; reporter gene, antagonist; Escherichia coli JLD271; 10 µM, pSC11 and pJN105L plasmids, with: OdDHL 2 nM): -36%

COc1ccccc1-c1n[nH]c2nc(NC3CCN(C(=O)Cc4ccc(F)cc4F)CC3)ncc12
relative abundance (bead binding, competition bead pull-down, measured: LMJF.35.0980; Leishmania donovani axenic amastigote extract; 10 µM; baseline: vehicle): 1

O=C(NCc1cc(Br)cc(Br)c1OC(=O)c1ccccc1[N+](=O)[O-])c1ccccc1Cl
inhibition (lasR; reporter gene, antagonist; Pseudomonas aeruginosa PAO-JP2; 100 µM, plasI-LVAgfp reporter, with: OdDHL 150 nM): -71%

Cc1cc(-c2ccc3ccccc3c2)nnc1NCCN1CCN(C)CC1
inhibition (PTGS1 (Homo sapiens, UniProt P23219); enzyme activity; concentration not given): negative

CN(/N=C/c1ccccc1C(=O)O)c1nc(-c2ccccc2Cl)cs1
inhibition (DAPK1 (Homo sapiens, UniProt P53355); enzyme activity, inhibitor; 1 µM): 8.43%

COc1cc(C[C@H](C)[C@H](C)Cc2ccc3c(c2)OCO3)ccc1O
inhibition (CES1 (Homo sapiens, UniProt P23141); intracellular hydrolysis, inhibitor, bioluminescence imaging; renal cells; 20 µM): inhibited

Cc1cc(C(=O)Nc2nc3cccc(C)c3n2[C@H]2CCCCN(C(=O)/C=C/CN(C)C)C2)ccn1
cell cycle distribution (Trypanosoma brucei; propidium iodide flow cytometry, measured: G2/M phase; bloodstream parental line; concentration not given): 44.9% and 46.6% and 45.4%

C[C@H](NCc1ccc(-c2ccc(C(F)(F)F)cc2)cc1)C(N)=O
inhibition (DYRK1B (Homo sapiens, UniProt Q9Y463); cell-free assay, competition with immobilised ligand; 1 µM): 3%

CC1(C)OB(c2cnc3c(c2)CC(=O)N3)OC1(C)C
inhibition (Uncharacterized hydrolase SAUSA300_2518 (Staphylococcus aureus, UniProt Q2FDS6); enzyme activity, inhibitor; 50 µM): 53.2%

N[C@H](C(=O)N1CCCC1)C1CCN(c2nccc3c(-c4ncc(Cl)cc4Cl)cccc23)CC1
inhibition (PDE3B (Homo sapiens, UniProt Q13370); enzyme activity, inhibitor; 10 µM): 1%

C=CC(=O)Nc1cc(-c2nn(C3CCC(N4CCN(C(C)=O)CC4)CC3)c3ncnc(N)c23)ccc1Oc1ccccc1 (stereo not shown)
inhibition (MTOR (Homo sapiens, UniProt P42345); inhibitor; 2 µM): 8.2%

CN(CCO)CCO.O=C(O)C(Cl)Cl
herbicidal inhibition (Eclipta prostrata; 15 mg/mL, 21 days, pre-emergence, greenhouse): 0%

CCCCCCCCCC(=O)CC(=O)NC1CCCCC1=O (stereo not shown)
inhibition (lasR; reporter gene, antagonist; Escherichia coli JLD271; 10 µM, pSC11 and pJN105L plasmids, with: OdDHL 2 nM): -96%

CC[C@H](C)[C@H](NC(=O)[C@H](CO)NC(=O)[C@H](Cc1ccc(O)cc1)NC(=O)[C@H](Cc1ccc(O)cc1)NC(=O)[C@H](CC(N)=O)NC(=O)CNC(=O)[C@H](CO)NC(=O)[C@H](Cc1ccc(O)cc1)NC(=O)[C@H](CO)NC(=O)[C@H](CO)NC(=O)[C@H](CC(N)=O)NC(=O)COCCOCCNC(=O)CN1CCN(CC(=O)O)CCN(CC(=O)O)CCN(CC(=O)O)CC1)C(=O)N[C@@H](CC(C)C)C(N)=O [copper-64 labelled]
tissue uptake (dynamic PET; KPC mouse Ptf1a-CreER tdTomato, pancreas; intravenous, dose not given, 1.4 min, 84 d after tamoxifen): 13.8 %ID/mL

COc1ccccc1-c1n[nH]c2nc(N[C@H]3CC[C@H](NS(=O)(=O)CC(C)C)CC3)ncc12
relative abundance (bead binding, competition bead pull-down, measured: LINJ.07.1150; Leishmania donovani extract; 10 µM; baseline: vehicle): 1.41

O=C1NC2(CC2)COc2ncc(F)cc2[C@H]2COCCN2c2ccn3ncc1c3n2
organ-to-brain weight ratio (Sprague-Dawley rat, female, liver; oral, 20 mg/kg/day, 4 weeks dosing, end of recovery): 446 ± 40.4%

CN[C@@H]1[C@H](O)[C@H](NC)[C@H]2O[C@]3(O)[C@H](O[C@@H]2[C@H]1O)O[C@H](C)C[C@H]3NC(=O)Cc1cc(Cl)ccn1
inhibition (Adra1a (Rattus norvegicus, UniProt P43140); ligand displacement, radioligand; 10 µM): 12%

CC(=O)NC[C@@H]1C[C@@H](O)[C@H]2[C@H](O)C[C@@H](CO)N12
inhibition (β-N-acetylglucosaminidase; enzyme activity, inhibitor, colorimetric; Canavalia ensiformis; 37.5 nM, with: p-nitrophenyl GlcNAc substrate): 22.1% and 16.2%

CC(C)(C)C(=O)OCOP(=O)(OCOC(=O)C(C)(C)C)C1CCCN(O)C1=O (stereo not shown)
TGI (NCI-H322M): 8.5 µM

Excerpt of the above:
CCOC(=O)[C@](CC)(CCCSCCOCCOCCNC(=O)c1ccc(-c2c3ccc(=N)c(S(=O)(=O)O)c-3oc3c(S(=O)(=O)O)c(N)ccc23)c(C(=O)O)c1)NC(=O)c1ccc(C2CC2)c(Cc2ccc(F)cc2)n1
inhibition (central benzodiazepine site; specific binding, agonist radioligand binding; 10 µM): -1%

CN(CCO)CCO.O=C(O)C(Cl)Cl
herbicidal inhibition (Eclipta prostrata; 15 mg/mL, 21 days, pre-emergence, greenhouse): 0%

CC(=O)NC[C@@H]1C[C@@H](O)[C@H]2[C@H](O)C[C@@H](CO)N12
inhibition (β-N-acetylglucosaminidase; enzyme activity, inhibitor, colorimetric; Canavalia ensiformis; 37.5 nM, with: p-nitrophenyl GlcNAc substrate): 22.1% and 16.2%

CC(C)(C)C(=O)OCOP(=O)(OCOC(=O)C(C)(C)C)C1CCCN(O)C1=O (stereo not shown)
TGI (NCI-H322M): 8.5 µM
